Published values pooled from the literature.
Compare with care: the assays were run in different laboratories. Converted amounts (≈) assume the structure as drawn.

Amino acid sequences for entries named in this document (tags omitted). Residues count along the entry.
UniProt P55210, whole entry, looked up: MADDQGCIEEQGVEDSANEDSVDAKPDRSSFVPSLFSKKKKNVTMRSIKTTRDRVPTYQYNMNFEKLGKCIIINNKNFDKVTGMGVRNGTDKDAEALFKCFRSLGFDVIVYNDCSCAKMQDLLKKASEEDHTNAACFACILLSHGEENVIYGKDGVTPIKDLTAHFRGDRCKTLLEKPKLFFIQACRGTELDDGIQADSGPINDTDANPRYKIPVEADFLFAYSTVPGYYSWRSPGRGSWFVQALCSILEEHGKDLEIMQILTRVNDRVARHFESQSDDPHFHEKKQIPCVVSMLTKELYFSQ
UniProt P09483, 31-630 limits assumed: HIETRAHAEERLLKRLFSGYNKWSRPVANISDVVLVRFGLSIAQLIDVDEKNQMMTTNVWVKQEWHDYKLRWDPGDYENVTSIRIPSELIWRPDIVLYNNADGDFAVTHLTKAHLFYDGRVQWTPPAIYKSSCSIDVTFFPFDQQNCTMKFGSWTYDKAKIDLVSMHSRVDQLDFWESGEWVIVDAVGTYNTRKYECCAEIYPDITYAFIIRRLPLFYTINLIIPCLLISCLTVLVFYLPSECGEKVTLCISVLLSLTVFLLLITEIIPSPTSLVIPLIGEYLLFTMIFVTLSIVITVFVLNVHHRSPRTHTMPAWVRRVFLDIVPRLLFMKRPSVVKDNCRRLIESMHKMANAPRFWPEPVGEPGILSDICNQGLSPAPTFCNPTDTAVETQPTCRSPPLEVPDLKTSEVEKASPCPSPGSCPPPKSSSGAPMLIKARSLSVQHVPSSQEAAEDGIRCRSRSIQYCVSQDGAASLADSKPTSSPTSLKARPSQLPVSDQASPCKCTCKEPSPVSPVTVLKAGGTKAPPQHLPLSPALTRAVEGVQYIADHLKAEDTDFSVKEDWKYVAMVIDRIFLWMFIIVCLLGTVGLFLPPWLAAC
UniProt P12392, 21-495 limits assumed: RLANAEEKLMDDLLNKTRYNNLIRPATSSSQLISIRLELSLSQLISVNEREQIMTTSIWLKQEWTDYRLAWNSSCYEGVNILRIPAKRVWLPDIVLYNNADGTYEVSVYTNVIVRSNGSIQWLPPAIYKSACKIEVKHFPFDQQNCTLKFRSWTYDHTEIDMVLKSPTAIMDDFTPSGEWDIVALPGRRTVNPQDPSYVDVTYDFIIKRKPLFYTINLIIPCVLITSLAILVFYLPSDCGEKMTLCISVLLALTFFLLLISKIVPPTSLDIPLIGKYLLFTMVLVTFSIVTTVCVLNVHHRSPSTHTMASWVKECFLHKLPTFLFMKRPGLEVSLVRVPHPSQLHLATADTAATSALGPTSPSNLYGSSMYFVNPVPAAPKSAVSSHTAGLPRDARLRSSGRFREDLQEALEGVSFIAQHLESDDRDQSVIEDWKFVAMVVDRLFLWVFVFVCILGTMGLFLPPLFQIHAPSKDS
UniProt P37136, 32-574 limits assumed: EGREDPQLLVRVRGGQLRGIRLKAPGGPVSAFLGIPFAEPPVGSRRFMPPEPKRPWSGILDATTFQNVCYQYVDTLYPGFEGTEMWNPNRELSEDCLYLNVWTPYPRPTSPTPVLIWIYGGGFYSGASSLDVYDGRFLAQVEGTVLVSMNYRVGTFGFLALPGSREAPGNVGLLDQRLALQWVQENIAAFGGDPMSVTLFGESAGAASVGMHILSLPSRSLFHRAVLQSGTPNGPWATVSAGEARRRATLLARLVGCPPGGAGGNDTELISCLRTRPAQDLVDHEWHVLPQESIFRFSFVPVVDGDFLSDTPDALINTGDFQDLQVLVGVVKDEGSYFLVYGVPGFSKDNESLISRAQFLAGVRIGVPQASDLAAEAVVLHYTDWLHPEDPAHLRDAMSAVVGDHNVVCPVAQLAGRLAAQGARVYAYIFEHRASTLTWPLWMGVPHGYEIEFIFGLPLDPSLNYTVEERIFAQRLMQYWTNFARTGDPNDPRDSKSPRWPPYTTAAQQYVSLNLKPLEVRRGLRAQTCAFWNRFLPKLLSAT
UniProt P08684, whole entry: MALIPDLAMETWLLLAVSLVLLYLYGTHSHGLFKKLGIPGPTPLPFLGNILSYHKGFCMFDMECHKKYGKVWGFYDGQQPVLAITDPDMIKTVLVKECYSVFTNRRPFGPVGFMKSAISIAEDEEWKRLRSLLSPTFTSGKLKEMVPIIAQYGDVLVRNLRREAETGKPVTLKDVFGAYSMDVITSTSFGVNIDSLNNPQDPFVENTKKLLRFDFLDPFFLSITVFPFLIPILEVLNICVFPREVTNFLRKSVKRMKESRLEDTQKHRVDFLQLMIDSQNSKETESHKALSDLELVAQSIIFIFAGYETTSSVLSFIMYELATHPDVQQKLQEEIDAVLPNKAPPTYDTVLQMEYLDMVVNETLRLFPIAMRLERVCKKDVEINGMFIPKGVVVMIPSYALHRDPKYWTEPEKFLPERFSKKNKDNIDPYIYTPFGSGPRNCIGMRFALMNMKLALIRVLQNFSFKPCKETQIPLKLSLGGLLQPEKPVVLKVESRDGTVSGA
UniProt P42574, whole entry, looked up: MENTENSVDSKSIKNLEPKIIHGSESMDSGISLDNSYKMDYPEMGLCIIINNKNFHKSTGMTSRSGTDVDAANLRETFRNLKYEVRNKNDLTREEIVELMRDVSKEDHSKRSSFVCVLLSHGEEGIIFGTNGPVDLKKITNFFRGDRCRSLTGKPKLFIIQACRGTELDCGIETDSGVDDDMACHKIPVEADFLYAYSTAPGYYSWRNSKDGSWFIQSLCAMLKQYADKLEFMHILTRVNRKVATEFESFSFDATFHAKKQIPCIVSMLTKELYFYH

Compound | tested on | test | test system | setting | how to read | endpoint | result
Cc1nn(-c2ccc(Cl)cc2)c2c1C(c1cccc(Cl)c1Cl)C(C#N)=C(N)O2 (stereo not drawn) | Vero E6 | – | – | 1.6 µM | – | viability | 80.2%
Fc1ccc2[nH]cc(CNCC3(N4CCCC4)COC3)c2c1 | A 172 | – | – | 30 µM, 48 h | baseline: DMSO | viability | 96.6%
CC(C)[C@H](NC(=O)CNC(=O)[C@H](COP(=O)(O)O)NC(=O)[C@@H](NC(=O)[C@H](CCC(=O)O)NC(=O)[C@H](CC(=O)O)NC(=O)CCNC(=O)Cc1cc(=O)oc2cc(N)ccc12)C(C)C)C(=O)N[C@@H](CCCCNc1ccc([N+](=O)[O-])cc1[N+](=O)[O-])C(=O)N[C@@H](CC(=O)O)C(N)=O | Caspase-7 (CASP7, Homo sapiens, UniProt P55210) | substrate | – | pH 7.2 | – | Km | 12.2 µM
CCOc1ccc(C2C(C#N)=C(N)Oc3c2c(C)nn3-c2ccc(Cl)cc2)cc1 (stereo not drawn) | Vero E6 | – | – | 6.3 µM | – | viability | 56.9%
CC[C@H](C)[C@@H]1NC(=O)[C@H](CCC(=O)O)NC(=O)[C@@H]2CCCN2C(=O)[C@H](Cc2c[nH]cn2)NC(=O)[C@H](CCCNC(=N)N)NC(=O)[C@H](C(C)C)NC(=O)[C@H](CC(N)=O)NC(=O)[C@@H]2CSSC[C@H](NC(=O)CN)C(=O)N[C@@H](CSSC[C@@H](C(N)=O)NC1=O)C(=O)N[C@@H](CO)C(=O)N[C@@H](Cc1c[nH]cn1)C(=O)N1CCC[C@H]1C(=O)N[C@@H](C(C)C)C(=O)N2 | Neuronal acetylcholine receptor; alpha4/beta4 (Rattus norvegicus, UniProt P09483+P12392) | ion current, antagonist, two-electrode voltage clamp | Xenopus oocytes | rat, added: ACh 300 µM | – | IC50 | > 10 µM
C[C@@H](O)[C@H](NC(=O)[C@H](CCCNC(=N)N)NC(=O)[C@H](CCCCN)NC(=O)[C@H](Cc1ccc(O)cc1)NC(=O)[C@@H](N)CCCNC(=N)N)C(=O)O | – | – | bovine cartilage explants | 48 h, 4 °C, PBS 0.15 M | direction not given | net charge Z | 2.87 elementary charge
Cc1nn(-c2ccc(Cl)cc2)c2c1C(c1ccc([N+](=O)[O-])cc1)C(C#N)=C(N)O2 (stereo not drawn) | Vero E6 | – | – | 0.4 µM | – | viability | 87.3%
Cc1ccc2[nH]cc(CNCC3(N4CCCC4)COC3)c2c1 | T98G | single-dose screen | – | 30 µM, 48 h | baseline: DMSO control | viability | 95.7%
COP(=O)(OC)Oc1ccc([N+](=O)[O-])cc1Cl | Ache (Rattus norvegicus, UniProt P37136) | enzyme activity, inhibitor, discontinuous Ellman | rat, postnatal day 1, rat heart homogenate | 15 min, 37 °C | – | IC50 | 0.067 µM
CC1(C)N=C(N)N=C(N)N1c1cccc(OCCCc2ccccc2)c1 | Mycobacterium tuberculosis | microplate alamar blue | H37Rv | 7H12 medium | – | MIC90 | 5.8 µM (≈ 2.04 µg/mL)
Cc1nn(-c2ccc(Cl)cc2)c2c1C(c1cc(Cl)ccc1Cl)C(C#N)=C(N)O2 (stereo not drawn) | Vero E6 | – | – | 1.6 µM | – | viability | 82%
N#Cc1c(-c2ccc(Cl)cc2Cl)n(-c2nc(-c3ccc(Cl)cc3)c3c(NC(=O)c4ccccc4)nnc-3[nH]2)[nH]c1=O | Malme-3M | SRB | – | – | – | CC50 | > 100 µM
CC(C)CC(NC(=O)C(Cc1ccccc1)NC(=O)c1cnc(C(=O)NC(Cc2ccccc2)C(=O)NC(CC(C)C)B(O)O)cn1)B(O)O (stereo not drawn) | U-266 | cell viability, CellTiter-Glo | – | 48 h | – | IC50 | 0.0061 µM
CCOC(=O)C1=C(C)N(c2cccc(C(F)(F)F)c2)C(=O)N(CC(=O)N(C)C)[C@@H]1c1ccc(C#N)cc1 | Cytochrome P450 3A4 (CYP3A4, Homo sapiens, UniProt P08684) | – | human liver microsomes | pH 7.4, added: midazolam | – | IC50 | > 50 µM
O=C(Nc1cccc(C2=NCCN2)c1)c1ccc(-c2ccc(C(=O)Nc3cccc(C4=NCCN4)c3)cc2)cc1 | HEK-293T | – | – | – | – | CC50 | > 100 µM
C[C@@H](O)[C@@H]1NC(=O)[C@H]2NC(=O)[C@@H](NC(=O)CN)CSSC[C@H](NC(=O)[C@H](CCCNC(=N)N)NC(=O)[C@@H]3CCCN3C(=O)[C@H](CC(=O)O)NC1=O)C(=O)N[C@@H](CCCNC(=N)N)C(=O)N[C@@H](Cc1ccc(O)c(I)c1)C(=O)N[C@@H](CCC(N)=O)C(=O)N[C@H](C(=O)N[C@H](CC(=O)N[C@@H](CCCNC(=N)N)C(=O)O)Cc1ccc(O)cc1)CSSC2(C)C | – | RP-HPLC | 25% human serum | 150 µM, 24 h, 37 °C | – | remaining globular isomer | 94%
CCOC(=O)c1c(-c2ccc(Cl)cc2Cl)n(-c2nc(-c3ccc(Cl)cc3)c3c(NC(=O)c4ccccc4)nnc-3[nH]2)[nH]c1=O | RPMI-8226 | SRB | – | – | – | CC50 | > 100 µM
CC[C@H](C)[C@H](NC(=O)[C@@H](NC(=O)[C@H](CC(=O)O)NC(=O)CNC(=O)[C@@H](NC(=O)[C@H](CC(=O)O)NC(=O)[C@H](CCSC)NC(=O)[C@H](CCC(=O)O)NC(=O)[C@H](CC(=O)O)NC(=O)[C@@H](NC(=O)CCNC(=O)Cc1cc(=O)oc2cc(N)ccc12)C(C)C)[C@@H](C)O)[C@@H](C)O)C(=O)N[C@@H](CCCCNc1ccc([N+](=O)[O-])cc1[N+](=O)[O-])C(N)=O | Caspase-3 (CASP3, Homo sapiens, UniProt P42574) | substrate | – | pH 7.2 | – | Km | 15.5 µM

For quick reference, copied from above:
Compound | tested on | test | test system | setting | how to read | endpoint | result
CC(C)CC(NC(=O)C(Cc1ccccc1)NC(=O)c1cnc(C(=O)NC(Cc2ccccc2)C(=O)NC(CC(C)C)B(O)O)cn1)B(O)O (stereo not drawn) | U-266 | cell viability, CellTiter-Glo | – | 48 h | – | IC50 | 0.0061 µM
